Measured values from different studies.
“And” joins repeats or separate records; there may be more than shown.
Target: Mitogen-activated protein kinase kinase kinase kinase 5 (MAP4K5, Homo sapiens, UniProt Q9Y4K4)

Compound | test | test system | conditions | scale | endpoint | result
Cc1cnc2nc1Nc1cccc(c1)COC/C=C/COCc1cc(ccc1OCCN1CCOCC1)N2 | binding | – | 0.1 µM | – | remaining binding | 100%
CCn1cc(C(=O)O)c(=O)c2c(N)c(F)c(NC3CCCCC3)cc21 | kinase activity | – | 0.1 µM, with: ATP at Km | – | inhibition | -0.9%
CN1CCN(Cc2ccc(-c3ccc(CO[C@H]4CCC[C@@H]4NC(=O)c4cc(-c5cnn(C)c5)cnc4N)cc3)cc2)CC1 | enzyme activity, inhibitor | – | 0.1 µM | – | inhibition | 8%
CCN1CCN(Cc2ccc(NC(=O)c3ccc(C)c(NC(=O)c4cncc(-c5cccs5)c4)c3)cc2C(F)(F)F)CC1 | binding, competition with immobilised ligand | – | 1 µM | – | remaining binding | 27%
CCN1CCN(Cc2ccc(C(=O)Nc3ccc(C)c(NCc4cnc5[nH]ccc5c4OC)c3)cc2C(F)(F)F)CC1 | binding, competition with immobilised ligand | – | 1 µM | – | remaining binding | 2.4%
N[C@H]1CC[C@H](Nc2nccc(-c3cccnc3Oc3ccc(NC(=O)NC4CC4)c4ccccc34)n2)CC1 | kinobead competition pulldown | HEK293/HCT116 lysate mixture | 10 µM, 1 h, 4 °C | lower = stronger competition | log2 LFQ intensity | 25.6 and 25.9 and 25.7
CNC(=O)C[C@H](Cc1ccc(C#N)cc1)NC(=O)c1cc(-c2ccc(CN[C@H](C)c3ccc(C)cc3)o2)ccc1Cl | enzyme activity, inhibitor | – | 1 µM | – | activity vs control | 115%
C=CC(=O)Nc1cccc(-c2cnc3[nH]cc(C(=O)NC(C)(C)C)c3n2)c1 | enzyme activity, inhibitor | – | 0.1 µM | – | inhibition | 50%
C=CC(=O)N1Cc2nc(-c3cc(-c4cc(Cl)cnc4Cl)c(F)cc3F)n(-c3ccncn3)c2C1 | cell-free assay, inhibitor | – | 1 µM | – | inhibition | 10.7%
CS(=O)(=O)Nc1cccc(-c2csc3cnc(Nc4ccc(N5CCN(CCCCCOc6cccc7c6C(=O)N(C6CCC(=O)NC6=O)C7=O)CC5)cc4)nc23)c1 (centres unmarked) | probe labelling, inhibitor, KiNativ chemoproteomics | MOLT-4 | 1 µM | – | inhibition | -9.93%
O=C(Cc1ccc(OCc2ccccc2)cc1)NC1(C(=O)O)CCN(C(=O)c2ccc(-c3cccc(Cl)c3)cc2)CC1 | enzyme activity, inhibitor | – | 10 µM | – | activity vs control | 112%
Cc1cccc(O[C@H]2CCC[C@@H](C(C)CNCc3ccncc3)C2)c1 (relative stereo) | enzyme activity, inhibitor | – | 1 µM | – | inhibition | -2%
CNC1C[S+]2CC[S+]3CC[S+](C1)[Ru-4]321([N]=C=S)[n]2c3ccc(OC)cc3c3c4c(c5cc(F)c[n+]1c5c32)C(=O)NC4=O (centres unmarked) | KinomeScan | – | 0.1 µM | reference: untreated | remaining binding | 100%
NC(=O)C[C@H]1CCc2sc3ncnc(O[C@H]4CC[C@H](N5CCOCC5)CC4)c3c21 | enzyme activity, inhibitor | – | 10 µM | – | inhibition | 12%

For quick reference, copied from above:
Compound | test | test system | conditions | scale | endpoint | result
CNC(=O)C[C@H](Cc1ccc(C#N)cc1)NC(=O)c1cc(-c2ccc(CN[C@H](C)c3ccc(C)cc3)o2)ccc1Cl | enzyme activity, inhibitor | – | 1 µM | – | activity vs control | 115%
